Measurements pooled from the literature.
A part holds a random share of what one study measured. Changes are numbered by the printed parent chain.

Study 1
Target: ABI1, truncated, D143A, DHFR fusion (Arabidopsis thaliana)
Technique: DHFR PCA, deep sequencing
Sample: yeast
Notes: methotrexate growth selection, single substitutions
With: (+)-ABA 4.8 µM
Relative to: wild-type fitted maximum
Direction: higher = stronger binding
Starting sequence: PYL1, truncated, DHFR fusion (Arabidopsis thaliana); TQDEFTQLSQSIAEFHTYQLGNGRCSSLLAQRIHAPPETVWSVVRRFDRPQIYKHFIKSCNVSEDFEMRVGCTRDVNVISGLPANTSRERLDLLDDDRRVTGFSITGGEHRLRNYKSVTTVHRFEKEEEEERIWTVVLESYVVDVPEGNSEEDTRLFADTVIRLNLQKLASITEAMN
`R74S` — result for “relative binding score”: -8.7%.
`N177R` — result for “relative binding score”: 71%.
`L166S` — result for “relative binding score”: -10%.

Study 2
Target: Ras GTPase-activating protein-binding protein 1, RRM domain (G3BP1, Homo sapiens, UniProt Q13283)
Sequence of UniProt Q13283 (whole entry, looked up): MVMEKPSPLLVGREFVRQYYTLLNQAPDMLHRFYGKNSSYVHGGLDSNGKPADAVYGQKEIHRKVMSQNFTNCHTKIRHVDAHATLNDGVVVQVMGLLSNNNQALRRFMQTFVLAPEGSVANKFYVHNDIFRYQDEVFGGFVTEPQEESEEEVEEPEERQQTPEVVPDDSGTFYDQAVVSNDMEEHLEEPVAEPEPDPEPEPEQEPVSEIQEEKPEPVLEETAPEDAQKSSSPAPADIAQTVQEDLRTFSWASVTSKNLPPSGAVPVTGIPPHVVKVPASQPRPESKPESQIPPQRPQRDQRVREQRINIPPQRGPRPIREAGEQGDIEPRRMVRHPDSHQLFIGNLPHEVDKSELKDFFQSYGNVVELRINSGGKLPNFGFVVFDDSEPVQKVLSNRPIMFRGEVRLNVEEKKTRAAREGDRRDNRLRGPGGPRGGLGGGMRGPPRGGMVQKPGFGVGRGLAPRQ
Technique: RNA Bind-n-Seq
Form: RNA
Sample: in vitro
Concentration: 1 µM
Notes: whole 134-nt RNA, ends assumed
With: 150 mM KCl
Relative to: input library
Direction: higher = stronger binding
`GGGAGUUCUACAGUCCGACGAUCUUUGGAGAAGGAACCCCACUCUCCAGCUGACCAGCCUGAACAACAGGCAGAAUCCACUUUGACAUCAGCUGAGACUAGGGGAAGCAAGAAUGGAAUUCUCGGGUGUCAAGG` has a log2 enrichment of -0.177.
`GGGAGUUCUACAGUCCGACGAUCCCAACUCCUAUAAUUCCCUAUCUUUUAGUUUUAGUUGCAGAAACAUUUUGUGGUCAUUAAGCAUUGGGUGGGUAAAUUCAACCACUGUAAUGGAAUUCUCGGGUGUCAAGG` has a log2 enrichment of -0.0833.
With `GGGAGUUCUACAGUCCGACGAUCGUCCUGUGCUACACAUCGUAUGUACCGAAUCGGGUUUUUGGGAAAAAGGGAAAAAGGGAAAGUAUUAUGUUACGCCGUUCGGAUCUGCACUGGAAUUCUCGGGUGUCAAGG` the log2 enrichment was -0.118.
The log2 enrichment of `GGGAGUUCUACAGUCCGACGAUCUGGGAGGUGGAUUUUGUUUAUUUCUUUAGCUCAUUUCCAGGGGUGGGAAUUUUUUUUUAAUAUGUGUCAUGAAUAAAGUUGUUUUUGAAAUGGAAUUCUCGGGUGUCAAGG` is reported as 1.68.
With `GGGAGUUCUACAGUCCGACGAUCACCAUGCAGUUGGGCAUCUUUGGGAAGUGGGGCAAGGGGGGGAUAGGGAGGGGGGUAACACUUUGGGAACAGGUGGUCCCAGGUCGUUUCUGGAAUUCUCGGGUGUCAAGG` the log2 enrichment was -0.543.
`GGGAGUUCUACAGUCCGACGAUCUAACUUUAGAGGAGGAUCUGAUGGAUAUGGCAGUGGAAGUGGAUUUGGGGAUGGCUAUAAUGGGUAUGGAGGAGGACCUGGAGGUGGCAAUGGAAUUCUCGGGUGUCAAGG` gave a log2 enrichment of -0.734.

Study 3
Target: RNA binding protein fox-1 homolog 2, RRM domain, GST-SBP tag (RBFOX2, Homo sapiens, UniProt O43251-10, residues 100-194)
Technique: RNA Bind-n-Seq
Form: RNA
Sample: in vitro
Concentration: 365 nM
Notes: natural RNA segment, single round, ends assumed
Relative to: no-protein control
Direction: higher = stronger binding
Target sequence (chain): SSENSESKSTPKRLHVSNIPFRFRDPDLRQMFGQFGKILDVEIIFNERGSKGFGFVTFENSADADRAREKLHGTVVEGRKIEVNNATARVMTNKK
`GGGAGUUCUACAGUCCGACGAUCUUCUACUGUGUCUAGGAUUGUUGGGAUUGUACAUAUGGUACUCUUUCAUAAAUGAUAAAUGAUUCUGAAUGUUAGUGUUUUAUGUUCAUAUAGGAAAUAUUUUCAUUGAGUGGAAUUCUCGGGUGCCAA` — result for “RBNS enrichment (R)”: 0.565.
`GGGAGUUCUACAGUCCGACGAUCUUCAUGCUUUGGGUCAGGAGGCCAAAGCUGAUGUUCAGGCCCCACCCACUCCCUACAGUCCUCAGACCAAGGAGGGGUUUGGGUAGUAGGCCCGAGCUGCAUUGCCGGCCUGGAAUUCUCGGGUGCCAA` — result for “RBNS enrichment (R)”: 0.418.
`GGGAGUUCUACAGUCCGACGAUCUAAUGAACGCACCUCGUUAAGUAUUUAUACUUGUAACUAACCCCAGGCAGGGACCUCAGCUUUGUUAGGAAUAAGGCACAAGAAGUAUUUUCUGUAGCUAUUGUUUCCUCUGGAAUUCUCGGGUGCCAA`: “RBNS enrichment (R)” 0.398.
`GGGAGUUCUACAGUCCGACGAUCCUCCUUGUAACCUUCUGUAACUAUUGGAUGACGCUUUCUCCAGCUUAGCCCUAAAUAAAGCACAGUUAAAAAAAAAACCAAAAACCUCAAAGAGUCCUUAUUGCUCUGUGUGGAAUUCUCGGGUGCCAA`: “RBNS enrichment (R)” 0.652.
Under “RBNS enrichment (R)”, `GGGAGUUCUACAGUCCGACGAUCAAACAGCGGGGCUCCAGGAGCGGCAAGUGACAGUCACGGGGAGGUGCUGGUUCCAUGCCUGCUCUCGAGGCAGCAGUGGGUUCAGGCCCAUCAGCUACCCCUGCAGCUGGUGGAAUUCUCGGGUGCCAA` is recorded as 0.433.
`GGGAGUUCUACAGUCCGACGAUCUUUGAAAGAAAUUUUCAGAUGUUCUGUUCCCUAUAGAGGGCCUAUUCCAGGAUCUAAAUGAAUGGGAAUUUAUAAUUCCUUUCAUAGACUCAAACCUGAAAGCAGAAAUUUGGAAUUCUCGGGUGCCAA` — result for “RBNS enrichment (R)”: 0.235.
Under “RBNS enrichment (R)”, `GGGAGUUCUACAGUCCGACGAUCUGACAGACUGGAAUAUUUCUUAGGCAAUGCAAGGCAAACAUUCACAUGAUCCACCGUUUUAACACCUCAGUCUUUGGUAGGAUGAAAUAAUAAAUGAAGAUGCCUAAAAUUGGAAUUCUCGGGUGCCAA` is recorded as 0.409.

Mixed results
`PhoQ, residues 284 288 289 292 302 303 DDMDFR` gave a fold induction of 0.789 (PhoP, residues 12 14 15 18 19 IQSYL (Escherichia coli, UniProt P23836); Sort-seq, item: YFP reporter; E. coli; PhoQ-PhoP variant library, with: 10 µM Mg2+; relative to: high Mg2+ state, higher = stronger signaling).

For quick reference, copied from above (study 3):
`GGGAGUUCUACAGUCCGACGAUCCUCCUUGUAACCUUCUGUAACUAUUGGAUGACGCUUUCUCCAGCUUAGCCCUAAAUAAAGCACAGUUAAAAAAAAAACCAAAAACCUCAAAGAGUCCUUAUUGCUCUGUGUGGAAUUCUCGGGUGCCAA`: “RBNS enrichment (R)” 0.652.
